Published values collected from several papers.
“And” joins repeats or separate records; there may be more than shown. ± marks the error that the study gave.
GLP1R: Glucagon-like peptide 1 receptor (GLP1R, Homo sapiens, UniProt P43220)
UniProt Q8IWT6, sequence (whole entry, unmodified, looked up): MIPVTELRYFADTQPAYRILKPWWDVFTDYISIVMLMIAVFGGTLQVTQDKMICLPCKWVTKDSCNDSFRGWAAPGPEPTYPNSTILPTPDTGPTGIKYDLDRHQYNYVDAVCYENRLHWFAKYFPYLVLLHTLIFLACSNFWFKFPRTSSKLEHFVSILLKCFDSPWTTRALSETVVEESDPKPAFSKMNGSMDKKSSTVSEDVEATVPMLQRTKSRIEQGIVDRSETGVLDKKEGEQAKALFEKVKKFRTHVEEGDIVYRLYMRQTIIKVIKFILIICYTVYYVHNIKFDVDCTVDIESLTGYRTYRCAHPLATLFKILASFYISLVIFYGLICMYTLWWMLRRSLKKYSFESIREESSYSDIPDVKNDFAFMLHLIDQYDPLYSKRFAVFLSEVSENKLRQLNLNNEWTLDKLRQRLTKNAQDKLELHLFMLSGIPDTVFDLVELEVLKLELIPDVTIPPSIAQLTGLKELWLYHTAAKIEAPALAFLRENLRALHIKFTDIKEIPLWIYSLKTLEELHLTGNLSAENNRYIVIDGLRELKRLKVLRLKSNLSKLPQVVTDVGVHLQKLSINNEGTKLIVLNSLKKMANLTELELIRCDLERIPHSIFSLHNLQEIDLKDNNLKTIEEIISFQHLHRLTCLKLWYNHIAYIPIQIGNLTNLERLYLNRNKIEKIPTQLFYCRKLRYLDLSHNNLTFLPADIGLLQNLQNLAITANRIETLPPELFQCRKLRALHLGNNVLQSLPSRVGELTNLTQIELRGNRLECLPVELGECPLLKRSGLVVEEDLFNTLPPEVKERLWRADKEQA
UniProt P51575, sequence (whole entry, unmodified, looked up): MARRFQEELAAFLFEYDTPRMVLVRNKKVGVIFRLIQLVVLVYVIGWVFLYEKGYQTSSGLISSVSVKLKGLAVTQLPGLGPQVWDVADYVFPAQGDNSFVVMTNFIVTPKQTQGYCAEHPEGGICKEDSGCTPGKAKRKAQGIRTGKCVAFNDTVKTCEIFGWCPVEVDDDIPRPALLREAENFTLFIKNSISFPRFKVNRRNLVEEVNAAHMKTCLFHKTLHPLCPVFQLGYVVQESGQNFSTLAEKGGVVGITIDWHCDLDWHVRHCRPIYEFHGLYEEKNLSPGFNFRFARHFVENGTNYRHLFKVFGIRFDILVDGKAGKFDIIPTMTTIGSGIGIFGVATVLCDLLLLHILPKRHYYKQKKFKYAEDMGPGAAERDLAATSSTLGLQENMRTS
UniProt P11388, sequence (whole entry, looked up): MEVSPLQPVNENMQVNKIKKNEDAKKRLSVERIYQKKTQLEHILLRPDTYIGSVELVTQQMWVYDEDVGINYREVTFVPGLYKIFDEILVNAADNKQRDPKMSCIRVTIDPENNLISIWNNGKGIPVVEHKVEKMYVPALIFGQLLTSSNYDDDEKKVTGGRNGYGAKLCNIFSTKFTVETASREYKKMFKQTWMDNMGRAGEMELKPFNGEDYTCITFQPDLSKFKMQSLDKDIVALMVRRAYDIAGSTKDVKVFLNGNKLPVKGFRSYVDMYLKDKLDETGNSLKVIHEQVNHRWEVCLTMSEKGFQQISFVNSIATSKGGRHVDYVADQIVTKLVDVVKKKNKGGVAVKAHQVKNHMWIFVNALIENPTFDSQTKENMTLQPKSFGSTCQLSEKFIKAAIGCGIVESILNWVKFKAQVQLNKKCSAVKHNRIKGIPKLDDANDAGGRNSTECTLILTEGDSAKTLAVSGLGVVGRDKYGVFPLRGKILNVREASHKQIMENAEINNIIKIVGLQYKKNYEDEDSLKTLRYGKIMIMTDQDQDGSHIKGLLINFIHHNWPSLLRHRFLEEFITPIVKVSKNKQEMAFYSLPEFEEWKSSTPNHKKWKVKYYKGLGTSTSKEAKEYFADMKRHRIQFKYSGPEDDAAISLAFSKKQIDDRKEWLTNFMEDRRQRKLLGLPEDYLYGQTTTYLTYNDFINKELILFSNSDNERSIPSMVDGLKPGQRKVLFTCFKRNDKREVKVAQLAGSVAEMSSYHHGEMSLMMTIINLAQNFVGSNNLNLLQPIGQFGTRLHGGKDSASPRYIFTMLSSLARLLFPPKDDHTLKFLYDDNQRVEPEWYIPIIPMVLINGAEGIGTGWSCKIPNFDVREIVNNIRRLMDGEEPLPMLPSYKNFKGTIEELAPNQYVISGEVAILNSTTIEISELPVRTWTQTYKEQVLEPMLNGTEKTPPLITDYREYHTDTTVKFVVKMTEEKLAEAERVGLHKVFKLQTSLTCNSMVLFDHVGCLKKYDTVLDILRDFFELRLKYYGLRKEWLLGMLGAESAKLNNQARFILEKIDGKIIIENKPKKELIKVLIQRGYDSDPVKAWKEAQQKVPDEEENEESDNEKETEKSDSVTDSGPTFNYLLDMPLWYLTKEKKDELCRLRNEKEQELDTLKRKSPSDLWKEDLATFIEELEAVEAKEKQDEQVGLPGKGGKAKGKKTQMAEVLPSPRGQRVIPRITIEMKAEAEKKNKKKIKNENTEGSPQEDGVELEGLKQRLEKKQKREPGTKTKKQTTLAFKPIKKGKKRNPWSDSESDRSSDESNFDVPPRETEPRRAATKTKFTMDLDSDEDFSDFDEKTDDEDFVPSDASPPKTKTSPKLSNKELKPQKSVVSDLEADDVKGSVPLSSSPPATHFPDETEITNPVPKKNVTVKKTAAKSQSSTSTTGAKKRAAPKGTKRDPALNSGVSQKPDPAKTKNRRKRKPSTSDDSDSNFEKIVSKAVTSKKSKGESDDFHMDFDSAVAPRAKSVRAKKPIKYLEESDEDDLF
UniProt Q6PL18, sequence (whole entry, unmodified, looked up): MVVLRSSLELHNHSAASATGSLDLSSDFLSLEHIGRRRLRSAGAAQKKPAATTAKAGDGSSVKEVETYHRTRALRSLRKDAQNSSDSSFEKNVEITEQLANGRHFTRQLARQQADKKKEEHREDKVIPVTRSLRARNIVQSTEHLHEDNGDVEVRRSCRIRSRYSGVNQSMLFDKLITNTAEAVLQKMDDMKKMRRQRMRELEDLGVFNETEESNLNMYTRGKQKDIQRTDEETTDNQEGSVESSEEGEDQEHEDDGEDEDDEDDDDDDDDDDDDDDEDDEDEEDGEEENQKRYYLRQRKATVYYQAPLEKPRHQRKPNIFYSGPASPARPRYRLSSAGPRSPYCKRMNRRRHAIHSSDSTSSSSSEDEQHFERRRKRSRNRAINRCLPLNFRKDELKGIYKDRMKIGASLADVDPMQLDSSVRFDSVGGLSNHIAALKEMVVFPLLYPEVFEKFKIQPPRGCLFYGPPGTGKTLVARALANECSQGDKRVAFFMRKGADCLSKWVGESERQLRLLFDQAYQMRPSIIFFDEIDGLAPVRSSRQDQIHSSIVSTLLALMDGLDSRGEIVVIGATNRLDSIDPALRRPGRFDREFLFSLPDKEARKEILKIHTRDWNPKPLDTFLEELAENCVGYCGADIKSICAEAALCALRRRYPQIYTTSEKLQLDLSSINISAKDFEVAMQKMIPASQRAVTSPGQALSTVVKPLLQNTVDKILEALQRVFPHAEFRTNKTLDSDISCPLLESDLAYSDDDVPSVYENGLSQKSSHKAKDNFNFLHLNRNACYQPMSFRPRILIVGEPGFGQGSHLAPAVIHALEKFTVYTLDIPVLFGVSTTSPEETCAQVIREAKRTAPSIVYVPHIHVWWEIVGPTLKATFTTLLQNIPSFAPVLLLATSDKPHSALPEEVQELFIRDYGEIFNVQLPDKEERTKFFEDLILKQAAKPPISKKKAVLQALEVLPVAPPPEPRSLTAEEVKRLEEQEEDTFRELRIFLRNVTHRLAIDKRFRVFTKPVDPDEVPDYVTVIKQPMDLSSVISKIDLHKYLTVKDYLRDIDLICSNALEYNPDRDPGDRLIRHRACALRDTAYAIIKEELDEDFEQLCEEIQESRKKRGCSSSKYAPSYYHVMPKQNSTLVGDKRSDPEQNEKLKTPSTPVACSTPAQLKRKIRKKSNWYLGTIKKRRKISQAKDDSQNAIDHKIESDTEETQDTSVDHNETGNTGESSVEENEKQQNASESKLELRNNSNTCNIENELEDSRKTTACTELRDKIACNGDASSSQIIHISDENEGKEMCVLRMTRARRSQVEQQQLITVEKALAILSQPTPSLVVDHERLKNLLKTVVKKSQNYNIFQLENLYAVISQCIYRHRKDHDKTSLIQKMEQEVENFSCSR
UniProt Q04609, sequence (whole entry, looked up): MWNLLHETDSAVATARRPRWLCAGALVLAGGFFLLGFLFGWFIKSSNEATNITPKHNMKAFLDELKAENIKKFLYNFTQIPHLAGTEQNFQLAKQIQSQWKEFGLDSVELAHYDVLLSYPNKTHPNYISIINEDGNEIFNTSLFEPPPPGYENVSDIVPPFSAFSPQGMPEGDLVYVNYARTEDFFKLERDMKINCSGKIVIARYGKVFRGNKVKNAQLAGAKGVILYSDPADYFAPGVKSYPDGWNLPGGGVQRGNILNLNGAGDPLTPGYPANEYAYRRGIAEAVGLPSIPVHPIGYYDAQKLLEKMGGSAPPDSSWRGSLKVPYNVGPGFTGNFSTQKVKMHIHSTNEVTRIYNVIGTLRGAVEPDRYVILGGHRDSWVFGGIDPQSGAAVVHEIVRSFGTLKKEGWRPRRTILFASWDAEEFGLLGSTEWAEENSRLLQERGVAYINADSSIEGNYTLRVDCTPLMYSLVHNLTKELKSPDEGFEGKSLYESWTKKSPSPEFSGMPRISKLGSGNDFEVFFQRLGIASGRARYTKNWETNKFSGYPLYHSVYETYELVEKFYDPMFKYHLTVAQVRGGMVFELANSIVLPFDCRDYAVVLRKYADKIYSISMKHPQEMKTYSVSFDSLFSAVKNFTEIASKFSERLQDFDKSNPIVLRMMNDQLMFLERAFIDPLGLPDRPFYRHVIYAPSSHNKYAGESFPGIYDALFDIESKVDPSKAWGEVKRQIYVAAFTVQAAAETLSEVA
UniProt Q16774, sequence (whole entry, unmodified, looked up): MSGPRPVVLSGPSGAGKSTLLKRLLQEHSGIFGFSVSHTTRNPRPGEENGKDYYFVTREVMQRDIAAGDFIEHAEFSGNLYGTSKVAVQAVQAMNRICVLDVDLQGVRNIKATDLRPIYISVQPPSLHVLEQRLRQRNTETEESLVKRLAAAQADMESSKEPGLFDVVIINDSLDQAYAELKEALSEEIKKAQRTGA

SMILES | target | assay | system | conditions | how to read | measurement | value
O=c1nc(SCc2cc(F)cc(C(F)(F)F)c2)nc(SCc2ccc3sccc3c2)[nH]1 | TOP2A (Homo sapiens, UniProt P11388) | DNA cleavage, competition with etoposide |  | 7.8 µM, with: etoposide 50 µM |  | linear DNA | 13.8% and 10.5%
Nc1ncnc2c1ncn2[C@@H]1O[C@H](COP(=O)(O)OP(=O)(O)O)[C@@H](O)[C@H]1O | GUK1 (Homo sapiens, UniProt Q16774, S18A) | binding, ITC |  |  |  | ΔG | -6.16 kcal/mol
CC[C@H](C)[C@H](NC(=O)[C@H](Cc1ccccc1)NC(=O)[C@H](CCC(=O)O)NC(=O)[C@H](CCCNC(=N)N)NC(=O)[C@H](C)NC(=O)[C@H](C)NC(=O)[C@H](CCC(N)=O)NC(=O)[C@H](CCC(=O)O)NC(=O)[C@H](CCC(=O)O)NC(=O)[C@H](CC(C)C)NC(=O)[C@H](Cc1ccc(O)cc1)NC(=O)[C@H](CO)NC(=O)[C@H](CO)NC(=O)[C@H](CCCCNc1c(NCCCCCN(O)C(=O)CCC(=O)NCCCCCN(O)C(=O)CCC(=O)NCCCCCN(O)C(C)=O)c(=O)c1=O)NC(=O)[C@H](CC(=O)O)NC(=O)[C@H](CO)NC(=O)[C@@H](NC(=O)[C@H](Cc1ccccc1)NC(=O)[C@@H](NC(=O)CNC(=O)[C@H](CCC(=O)O)NC(=O)[C@H](C)NC(=O)CCc1cnc[nH]1)[C@@H](C)O)[C@@H](C)O)C(=O)N[C@@H](C)C(=O)N[C@@H](Cc1c[nH]c2ccccc12)C(=O)N[C@@H](CC(C)C)C(=O)N[C@H](C(=O)N[C@@H](CCCCNc1c(NCCCCCN(O)C(=O)CCC(=O)NCCCCCN(O)C(=O)CCC(=O)NCCCCCN(O)C(C)=O)c(=O)c1=O)C(=O)NCC(=O)N[C@@H](CCCNC(=N)N)C(=O)N[C@@H](CCCCNC(=O)COCCOCCNC(=O)COCCOCCNC(=O)CC[C@H](NC(=O)CCCCCCCCCCCCCCCCC(=O)O)C(=O)O)C(=O)O)C(C)C | GLP1R | agonist, CRE luciferase reporter | BHK cells | Zr-loaded DFO conjugate, with: 0% HSA | baseline: parent peptide | fold potency loss | 68.4
CNc1ccc(-c2nc3ccc(O)cc3s2)cc1 | Amyloid-beta precursor protein, amyloid-beta (APP, Homo sapiens, UniProt P05067) | binding, competition binding | amyloid-beta aggregates | 500 nM, with: tritiated amyloid ligand |  | inhibition | 79.3% and 81.7%
C=C1CN(S(=O)(=O)c2ccc(C)cc2)CCCN(Cc2ccccc2)CCCN(S(=O)(=O)c2ccc(C)cc2)C1 | CD4 signal peptide FLuc |  | HEK293 reporter-transfected | concentration not given, 1 h, unit not given, with: cycloheximide | baseline: mock | FLuc activity | 1.29
Nc1ncnc2c1ncn2[C@@H]1O[C@H](COP(=O)(O)CP(=O)(O)OP(=O)(O)O)[C@@H](O)[C@H]1O | P2X purinoceptor 1 (P2RX1, Homo sapiens, UniProt P51575, K136A) | calcium influx |  | 10 µM | baseline: ionomycin response | calcium influx | 94.8% and 100%
[H]/N=C(/N)NCC(=O)O | SLC6A6 (Homo sapiens, UniProt P31641, G62A) | binding, microscale thermophoresis |  | 3.91 µM, room temperature, with: 50 nM labelled protein | higher = more binding | normalised MST signal | -0.00644
CC[C@H](C)[C@H](NC(=O)[C@H](Cc1ccccc1)NC(=O)[C@H](CCC(=O)O)NC(=O)[C@H](CCCNC(=N)N)NC(=O)[C@H](C)NC(=O)[C@H](C)NC(=O)[C@H](CCC(N)=O)NC(=O)[C@H](CCC(=O)O)NC(=O)[C@H](CCC(=O)O)NC(=O)[C@H](CC(C)C)NC(=O)[C@H](Cc1ccc(O)cc1)NC(=O)[C@H](CO)NC(=O)[C@H](CO)NC(=O)[C@@H](NC(=O)[C@H](CC(=O)O)NC(=O)[C@H](CO)NC(=O)[C@@H](NC(=O)[C@H](Cc1ccccc1)NC(=O)[C@@H](NC(=O)CNC(=O)[C@H](CCC(=O)O)NC(=O)[C@H](C)NC(=O)CCc1cnc[nH]1)[C@@H](C)O)[C@@H](C)O)C(C)C)C(=O)N[C@@H](C)C(=O)N[C@@H](Cc1c[nH]c2ccccc12)C(=O)N[C@@H](CC(C)C)C(=O)N[C@H](C(=O)N[C@@H](CCCNC(=N)N)C(=O)NCC(=O)N[C@@H](CCCNC(=N)N)C(=O)N[C@@H](CCCCNC(=O)COCCOCCNC(=O)COCCOCCNC(=O)CC[C@H](NC(=O)CCCCCCCCCCCCCCCCC(=O)O)C(=O)O)C(=O)NCC(=O)NCC(=O)N[C@@H](CO)C(=O)N[C@@H](CCSC)C(=O)N[C@H](C(=O)N[C@@H](CCCCNc1c(NCCCCCN(O)C(=O)CCC(=O)NCCCCCN(O)C(=O)CCC(=O)NCCCCCN(O)C(C)=O)c(=O)c1=O)C(=O)O)C(C)C)C(C)C | GLP1R | agonist, CRE luciferase reporter | BHK cells | Zr-loaded DFO conjugate, with: 0% HSA | baseline: parent peptide | fold potency loss | 1.4
O=C1NC(=O)/C(=C/c2ccc(OCCNc3nc4c(cnn4C4CCCC4)c(=O)[nH]3)c(F)c2)S1 | PDE4D (Homo sapiens, UniProt Q08499) |  |  |  | baseline: PDE4D over PDE9 | selectivity ratio | 450 fold
C[S+](CC[C@H](N)C(=O)[O-])C[C@H]1O[C@@H](n2cnc3c(N)ncnc32)[C@H](O)[C@@H]1O (stereo partly drawn) | KMT2C (Homo sapiens, UniProt Q8NEZ4) | substrate, enzyme-coupled methylation |  | with: H3 peptide 200 µM |  | apparent Vmax | 1.6 ± 0.1 µM/min
Cc1cc2c(cc1N1C(=O)c3cccc4c(Cl)ccc(c34)C1=O)n(C)c(=O)n2C | Transcription intermediary factor 1-alpha, bromodomain (TRIM24, Homo sapiens, UniProt O15164) | thermal shift |  | 10 µM |  | ΔTm | -1.2 °C
CC[C@H](C)[C@@H]1NC(=O)[C@H]([C@@H](C)O)NC(=O)[C@@H]2CCCN2C(=O)[C@H](CC(C)C)NC(=O)[C@H](Cc2ccc(O)cc2)NC(=O)CSC[C@@H](C(N)=O)NC(=O)[C@H](CC(C)C)NC(=O)[C@@H]2CCCN2C(=O)[C@H](Cc2c[nH]cn2)NC(=O)[C@H](Cc2c[nH]c3ccccc23)NC(=O)[C@H](CC(C)C)NC(=O)[C@H](Cc2c[nH]cn2)NC(=O)CNC(=O)[C@H](C(C)C)NC(=O)CNC(=O)[C@H]([C@@H](C)O)NC1=O | Vacuolar protein sorting-associated protein 29 (VPS29, Homo sapiens, UniProt Q9UBQ0) | binding, ITC |  | 25 °C, protein alone |  | ΔH | -9.1 ± 1.6 kcal/mol
CCCCCCCCCCCC1=C(O)C(=O)C=C(O)C1=O | de novo protein S23 | CD spectroscopy titration |  | concentration not given |  | binding | not detected
C=CC(=O)N1C/C(=C\c2ccc([N+](=O)[O-])cc2)C(=O)/C(=C/c2ccc([N+](=O)[O-])cc2)C1 | NanoBiT HiBiT/LgBiT luciferase | inhibitor, HiBiT luminescence counterscreen | conditioned medium only | 5 µM, 24 h | baseline: vehicle | luminescence signal reduction | -5.82%
Cc1ccc(C(=O)Nc2ccc3ccccc3c2)o1 | Otop1 (Mus musculus, UniProt Q80VM9) | proton current, voltage ramp patch-clamp |  | 10 µM, NMDG bath cation |  | reversal potential | 56.9 mV
O=C(Nc1cccc2c(=O)cc(-c3nnn[nH]3)oc12)c1ccc(OCCCCc2ccccc2)cc1 | LRRC8A/LRRC8C (Homo sapiens, UniProt Q8IWT6+Q8TDW0, M48D/T48D) | ion current, whole-cell patch clamp | HCT LRRC8-/- cells | 0.1 µM, +100 mV, T48D/M48D heteromers |  | inhibition | 3.73% and 1.34% and -5.75%
Oc1ccc(/C=C/c2cc(O)cc(O)c2)cc1 | APP (Homo sapiens, UniProt P05067) | fibril formation, ThT fluorescence |  | 1-fold of peptide, pH 7.4, room temperature, with: amyloid-beta 10 µM | baseline: untreated | aggregation half-time | 110 ± 6%
C=CC(=O)N1CCC(COCC(=O)N2CCN(c3nc(-c4cnc(N)nc4C(F)F)nc(N4CCOC[C@@H]4C)n3)CC2)CC1 | MELK (Homo sapiens, UniProt Q14680) | KINOMEscan |  | 1 µM |  | remaining binding | 100%
O=C([O-])CN(CCN(CC(=O)[O-])Cc1cc(CCC(=O)NCCCCCC(=O)NCCCC[C@H](NC(=O)N[C@@H](CCC(=O)O)C(=O)O)C(=O)O)ccc1[O-])Cc1cc(CCC(=O)O)ccc1[O-].[68Ga+3].[OH3+] | FOLH1 (Homo sapiens, UniProt Q04609) | radioligand, saturation binding | LNCaP | 1 h, 37 °C, with: [99mTc]TcO-6 |  | Bmax | 19.8 ± 2.4 pmol/mg
CCCCC[C@H](O)/C=C/[C@H]1[C@H](O)CC(=O)[C@@H]1C/C=C\CCCC(=O)O | PTGER1 (Homo sapiens, UniProt P34995, P39A) | IP1 accumulation, agonist | AD293 | 1 h, EP1 P39A mutant |  | Emax | 110 ± 3.13%
CC[C@H](C)[C@H](NC(=O)[C@H](Cc1ccccc1)NC(=O)[C@H](CCC(=O)O)NC(=O)[C@H](CCCNC(=N)N)NC(=O)[C@H](C)NC(=O)[C@H](C)NC(=O)[C@H](CCC(N)=O)NC(=O)[C@H](CCC(=O)O)NC(=O)[C@H](CCC(=O)O)NC(=O)[C@H](CC(C)C)NC(=O)[C@H](Cc1ccc(O)cc1)NC(=O)[C@H](CO)NC(=O)[C@H](CO)NC(=O)[C@@H](NC(=O)[C@H](CC(=O)O)NC(=O)[C@H](CO)NC(=O)[C@@H](NC(=O)[C@H](Cc1ccccc1)NC(=O)[C@@H](NC(=O)CNC(=O)[C@H](CCC(=O)O)NC(=O)[C@H](C)NC(=O)CCc1cnc[nH]1)[C@@H](C)O)[C@@H](C)O)C(C)C)C(=O)N[C@@H](C)C(=O)N[C@@H](Cc1c[nH]c2ccccc12)C(=O)N[C@@H](CC(C)C)C(=O)N[C@H](C(=O)N[C@@H](CCCNC(=N)N)C(=O)NCC(=O)N[C@@H](CCCNC(=N)N)C(=O)N[C@@H](CCCCNC(=O)COCCOCCNC(=O)COCCOCCNC(=O)CC[C@H](NC(=O)CCCCCCCCCCCCCCCCC(=O)O)C(=O)O)C(=O)NCC(=O)NCC(=O)N[C@@H](CO)C(=O)N[C@@H](CCCCNc1c(NCCCCCN(O)C(=O)CCC(=O)NCCCCCN(O)C(=O)CCC(=O)NCCCCCN(O)C(C)=O)c(=O)c1=O)C(=O)NCC(=O)NCC(=O)N[C@@H](CO)C(=O)N[C@@H](CCCCNc1c(NCCCCCN(O)C(=O)CCC(=O)NCCCCCN(O)C(=O)CCC(=O)NCCCCCN(O)C(C)=O)c(=O)c1=O)C(=O)O)C(C)C | GLP1R | agonist, CRE luciferase reporter | BHK cells | metal-free DFO conjugate, with: 1% HSA | baseline: parent peptide | fold potency loss | 1.9
O=C(CO)NC1C(O)CC(OC2C(O)C(CO)OC(Oc3ccc([N+](=O)[O-])cc3)C2O)(C(=O)O)OC1C(O)C(O)CO (stereo not drawn) | Sialidase-2 (Homo sapiens, UniProt Q9Y3R4) | substrate |  | 0.3 mM, 30 min, pH 5.0, 37 °C |  | sialic acid release | 83%
CC1CCCN(C(=O)c2cc3ncccn3n2)C1 (stereo not drawn) | Transcription intermediary factor 1-alpha, PHD-bromodomain (TRIM24, Homo sapiens, UniProt O15164) | binding, affinity selection mass spectrometry |  |  | baseline: other proteins in batch | log fold enrichment | -0.0206
O=C1CCC(N2C(=O)c3cccc(NCCCCNC(=O)c4cccc(C#Cc5cc(NC(=O)Nc6ccnc(Cl)c6)ccn5)c4)c3C2=O)C(=O)N1 (stereo not drawn) | SWI/SNF-related matrix-associated actin-dependent regulator of chromatin subfamily A member 4, residues 537-1393 (SMARCA4, Homo sapiens, UniProt P51532) | ITC |  |  |  | ΔS | -37.6 cal/mol/K
O=C(COP(=O)(O)O)[C@@H](O)[C@H](O)[C@H](O)COP(=O)(O)O | Pyruvate kinase PKM (PKM, Homo sapiens, UniProt P14618) | pyruvate kinase activity, activator | RKO cell lysate | without AIM |  | minimum concentration, maximal activation | 273 ± 129 nM
COc1cc(Cl)c(C(=O)N[C@@H](CN[C@H]2CC[C@@H](N)CC2)Cc2ccc(C#N)cc2)cc1-c1ccc(CN[C@H](C)c2ccc(C)cc2)o1 | ATPase family AAA domain-containing protein 2, bromodomain (ATAD2, Homo sapiens, UniProt Q6PL18) | ITC |  | 37 °C |  | ΔS | 21.1 cal/(mol·K)
CC(=C/C(=O)O)/C=C/C=C(\C)C1C=C2C(C)(C)CCCC2(C)O1 (stereo not drawn) | Rhodopsin (RHO, Homo sapiens, UniProt P08100, T17M) | immunostaining, refers to: opsin | COS-7 transfected | 0.10 µM, unit not given | baseline: surface over total stained cells | plasma membrane localization | 0

For quick reference, copied from above:
SMILES | target | assay | system | conditions | how to read | measurement | value
CCCCCCCCCCCC1=C(O)C(=O)C=C(O)C1=O | de novo protein S23 | CD spectroscopy titration |  | concentration not given |  | binding | not detected
C=CC(=O)N1C/C(=C\c2ccc([N+](=O)[O-])cc2)C(=O)/C(=C/c2ccc([N+](=O)[O-])cc2)C1 | NanoBiT HiBiT/LgBiT luciferase | inhibitor, HiBiT luminescence counterscreen | conditioned medium only | 5 µM, 24 h | baseline: vehicle | luminescence signal reduction | -5.82%
